Measurements of several laboratories.
Parts stem from different laboratories: compare values within a part only.

Block 1 — technique: universal PBM; molecule type: double-stranded DNA, one strand shown; medium: in vitro; concentration: 600 nM; reading: higher = stronger binding
Target: Sal-like protein 4, full length isoform A (SALL4, Homo sapiens, UniProt Q9UJQ4, residues 1-1053)
Sequence of UniProt Q9UJQ4 (whole entry, looked up): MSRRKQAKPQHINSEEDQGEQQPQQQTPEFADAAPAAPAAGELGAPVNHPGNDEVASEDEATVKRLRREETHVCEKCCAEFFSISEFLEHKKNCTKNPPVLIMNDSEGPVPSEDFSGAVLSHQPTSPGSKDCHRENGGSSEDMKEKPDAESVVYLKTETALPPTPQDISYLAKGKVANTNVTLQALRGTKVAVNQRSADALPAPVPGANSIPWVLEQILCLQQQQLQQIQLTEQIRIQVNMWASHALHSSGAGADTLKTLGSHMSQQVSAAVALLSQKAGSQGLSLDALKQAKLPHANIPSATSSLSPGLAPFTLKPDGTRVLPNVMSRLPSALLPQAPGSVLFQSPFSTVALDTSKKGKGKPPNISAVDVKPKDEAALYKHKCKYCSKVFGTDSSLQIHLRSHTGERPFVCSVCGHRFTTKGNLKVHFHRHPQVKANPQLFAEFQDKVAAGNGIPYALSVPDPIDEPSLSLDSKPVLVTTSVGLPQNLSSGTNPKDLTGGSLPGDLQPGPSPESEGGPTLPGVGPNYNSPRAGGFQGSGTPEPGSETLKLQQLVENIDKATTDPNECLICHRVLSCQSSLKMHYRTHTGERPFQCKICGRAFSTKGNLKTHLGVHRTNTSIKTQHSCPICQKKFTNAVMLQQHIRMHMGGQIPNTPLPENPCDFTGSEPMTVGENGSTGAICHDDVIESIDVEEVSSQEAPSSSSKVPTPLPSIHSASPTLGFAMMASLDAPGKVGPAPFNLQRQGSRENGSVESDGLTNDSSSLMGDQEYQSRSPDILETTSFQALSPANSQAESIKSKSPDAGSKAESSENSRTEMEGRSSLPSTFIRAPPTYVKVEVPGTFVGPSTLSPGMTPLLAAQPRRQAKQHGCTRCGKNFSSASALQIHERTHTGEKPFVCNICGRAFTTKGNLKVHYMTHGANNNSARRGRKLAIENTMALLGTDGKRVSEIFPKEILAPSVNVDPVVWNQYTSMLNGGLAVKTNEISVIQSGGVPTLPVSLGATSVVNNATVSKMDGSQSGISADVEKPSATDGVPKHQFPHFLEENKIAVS
Notes: 8-mer, flanks averaged, mean of replicates
| Sequence | E-score |
| --- | --- |
| GGTAGAAA | -0.0436 |
| ATAATACG | 0.27 |
| GGGAAAAA | 0.107 |
| CGGACACG | -0.283 |
| CAGGTTAG | -0.238 |
| CACTTCCA | 0.0869 |
| AGCGTAGA | -0.105 |
| AGCGCGAA | -0.123 |
| AACCGTGT | -0.0626 |
| CTCGAACA | 0.041 |
| ATTTATGA | 0.433 |
| TGACCACA | 0.0314 |
| CCGCGCAG | -0.342 |
| ACACCCGT | -0.204 |
| AGGAACCG | -0.198 |
| ACGCATCA | 0.164 |
| AAGTGTGT | 0.14 |
| TATAAGCA | 0.279 |

Block 2 — target: UBE2O UBC core domain (UniProt Q9C0C9); technique: yeast two-hybrid; medium: yeast; notes: mostly zero background; reference: not given; reading: higher = stronger interaction
B1: MARCHF1 RING domain (UniProt Q8TCQ1); chain TAPRSQSRLSVCPSTQDICRICHCEGDEESPLITPCRCTGTLRFVHQSCLHQWIKSSDTRCCELCKYDFIMETKLKPLRKWE
B2: NFX1 RING domain (UniProt Q12986); chain IEQLTTEKYECMVCCELVRVTAPVWSCQSCYHVFHLNCIKKWARSPASQADGQSGWRCPACQNVSAHVPNTY
B3: MID2 RING domain (UniProt Q9UJV3); chain KMETLESELTCPICLELFEDPLLLPCAHSLCFSCAHRILVSSCSSGESIEPITAFQCPTCRYVISLNHRGL
B4: RING1 RING domain (UniProt Q06587); chain SPRSLHSELMCPICLDMLKNTMTTKECLHRFCSDCIVTALRSGNKECPTCRKKLVSKRSLR
B5: BFAR RING domain (UniProt Q9NZS9); chain GPQISVSEFSCHCCYDILVNPTTLNCGHSFCRHCLALWWASSKKTECPECREKWEGFPKVS
B6: RNF186 RING domain (UniProt Q9NXI6); chain HSGSTECDLECLVCREPYSCPRLPKLLACQHAFCAICLKLLLCVQDNTWSITCPLCRKVTAVPGGLI
B7: ZNRF4 RING domain (UniProt Q8WWF5); chain VRTFTWHNDLCAICLDEYEEGDQLKILPCSHTYHCKCIDPWFSQAPRRSCPVCKQSVAATEDSF
B8: TRIM41 RING domain (UniProt Q8WV44); chain PVQTLQEEAVCAICLDYFTDPVSIGCGHNFCRVCVTQLWGGEDEEDRDELDREEEEEDGEEE
Construct (chain): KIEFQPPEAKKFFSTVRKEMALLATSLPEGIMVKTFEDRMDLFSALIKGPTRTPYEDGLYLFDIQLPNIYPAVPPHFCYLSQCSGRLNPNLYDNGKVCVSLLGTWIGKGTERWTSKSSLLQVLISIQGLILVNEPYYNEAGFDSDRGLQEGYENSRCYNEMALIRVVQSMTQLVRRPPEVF
| Molecule | lacZ reporter activity |
| --- | --- |
| B1 (MARCHF1 RING domain) | 0 |
| FAEQPSVKLCCQLCCSVFKDPVITTCGHTFCRRCALKSEKCPVDNVKLTVVVNNI (TRAF7 RING domain (UniProt Q6Q0C0)) | 0 |
| B2 (NFX1 RING domain) | 0 |
| B3 (MID2 RING domain) | 0 |
| DDVLTKDAGECVICLEELLQGDTIARLPCLCIYHKSCIDSWFEVNRSCPEHPAD (ZNRF1 RING domain (UniProt Q8ND25)) | 0 |
| ASEEEFQFLRCQQCQAEAKCPKLLPCLHTLCSGCLEASGMQCPICQAPWPLGADTP (PML RING domain (UniProt P29590)) | 0 |
| FDPPLESKYECPICLMALREAVQTPCGHRFCKACIIKSIRDAGHKCPVDNEILLENQLFP (TRAF6 RING domain (UniProt Q9Y4K3)) | 0 |
| B4 (RING1 RING domain) | 0 |
| B5 (BFAR RING domain) | 0 |
| LVKDFNPYITCYICKGYLIKPTTVTECLHTFCKTCIVQHFEDSNDCPRCGNQVHETNPLE (PCGF5 RING domain (UniProt Q86SE9)) | 0 |
| B6 (RNF186 RING domain) | 0 |
| B7 (ZNRF4 RING domain) | 0 |
| B8 (TRIM41 RING domain) | 0 |

Block 3 — technique: RNA Bind-n-Seq; molecule type: RNA; medium: in vitro; concentration: not given; reference: input RNA pool; reading: higher = stronger binding
Target: RING finger protein unkempt homolog, zinc fingers 1-6, GST-SBP tag (UNK, Homo sapiens, UniProt Q9C0B0, residues 30-357)
Sequence of UniProt Q9C0B0 (30-357, looked up): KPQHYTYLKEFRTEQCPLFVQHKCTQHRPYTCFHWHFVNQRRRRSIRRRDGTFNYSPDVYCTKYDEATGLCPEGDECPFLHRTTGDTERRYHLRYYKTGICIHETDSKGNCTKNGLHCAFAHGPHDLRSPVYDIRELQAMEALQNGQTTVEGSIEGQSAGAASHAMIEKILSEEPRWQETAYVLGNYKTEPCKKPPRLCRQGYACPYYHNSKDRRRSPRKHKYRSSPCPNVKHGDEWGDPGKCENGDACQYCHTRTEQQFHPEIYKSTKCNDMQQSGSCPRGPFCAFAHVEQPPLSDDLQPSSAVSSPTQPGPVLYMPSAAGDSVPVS
Notes: RNA with constant flanks, human and mouse sites, ends assumed
| Sequence | bound/input enrichment |
| --- | --- |
| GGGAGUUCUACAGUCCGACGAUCGAUCAGAAAAGGAAAGAAAGAAAAGCUCAGAGGCAAGCAGCAAAAAAUCAAAUGUAUGACGAUUACUACUAUUAUGGUCCACCUCAUAUGCCCCCUCCAACAAGAGGUCGAGGGCGUGGACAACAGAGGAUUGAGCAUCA | 0.477 ratio |
| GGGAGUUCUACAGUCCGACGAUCACCAUAAUUCCUCUUAAGCAUAUGACUAAUUUAUUUCUUAUUCAUUUCCAUUUCAGCAUUUAGUUCUUUAUUUUUAUUAUGGGGCUAGUUCAGAACUGGAGUGGCUGUAUAGCAGUGUAGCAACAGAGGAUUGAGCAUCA | 7.59 ratio |
| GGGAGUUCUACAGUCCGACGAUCAUGAUAUGUCCAUAAUGGCCUGGACAGAGGGUGGUGGCUAGUGUCUACGUCAUUUCUUGACCCCAGAUCUGGCGGGAGCUCUUCUCACCUCUGCAUGCACUUAACUUUGGCAUUGGUGGUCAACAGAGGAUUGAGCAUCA | 0.254 ratio |
| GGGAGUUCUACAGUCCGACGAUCUAUGAAGUAUUUCAGACCCAGUUGUAGAUCAUCACUCCGCCACUCUCUCCUUUAUUGCCUACUAGUUAUUUAAAUUGGACUUUUAAUAUCCUACCAGCUGCUCUUCAGACACACAUGGUGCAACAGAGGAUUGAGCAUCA | 17.2 ratio |
| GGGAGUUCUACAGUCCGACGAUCAUGGAAGAUACCCUGAAGAGGAGGUUUUUCUAUGAUCAAGCUUUUGCUAUUUAUGGAGGUGUUAGUGGUCUGUAUGACUUUGGGCCAGUUGGCUGUGCUUUGAAGAACAAUAUUAUUCAGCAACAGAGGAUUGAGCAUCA | 0.184 ratio |
| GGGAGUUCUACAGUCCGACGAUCUGUGGCGGCUUGGGCGGGACGCACGCGGUGCAGUUCAAGAUGGCGGAUGCAGAAGUAAUUACAUUCCCAAAGAAGCAUAAGAAGAAAAAAGACCGGAAGCCAUUACAAGAAGAUGAUGUUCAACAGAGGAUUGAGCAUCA | 0.588 ratio |
| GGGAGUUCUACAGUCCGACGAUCCCCACUAAACCAUCUCUCAGGCUCCUGAGAGGUUUUUUGUUUGUUUGUUUUUGUUUUUUAAAUAGGUCUCAGCUGGCCUGGAGCUUGCAGUGUAGAUCAGGCUGGCCUAGAGCUUACUGACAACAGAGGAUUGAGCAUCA | 0.274 ratio |
| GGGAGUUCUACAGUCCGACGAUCUAUGGUUAUGAGAAGCCAGAGGAACGCUGGUUACCUAUCCAUACUGUGGAAACCAUCAUGAUUAGUGUCAUUUCUAUGCUGGCAGAUCCUAAUGGAGACUCACCUGCAAAUGUAGAUGCUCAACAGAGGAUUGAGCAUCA | 0.6 ratio |
| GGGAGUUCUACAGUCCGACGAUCAUGGCUUGGAUGAUAUUAAGGACCGUUCGACACUUGGAGAGAAAUUGGGAGGCAAUGUAGUAGUUUCACUUGAAGGAAAACCAUUAUAAAAUGACAGUCAAGUGCCAUCUGGAUCUUAAGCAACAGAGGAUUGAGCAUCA | 0.818 ratio |
| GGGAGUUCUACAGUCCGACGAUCAAGCUAUAUAUAGUGAGUUUUUCUAAAUUAAGGGAACUCUGCUUUUUUUUUUUUUUUUUAAGUAACUGGUCUGUAAGUGCAUAUCUCUAGAACGUCCCCGCAGAUGAAUGAGGGCCAGUGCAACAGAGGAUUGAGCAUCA | 6.27 ratio |
| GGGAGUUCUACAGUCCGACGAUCGAGGAUAAUCCAUUUGCAGAGUACAUGUGGAUGGAAAAUGAAGAGGAAUUCAACAGACAAAUAGAAGAGGAGUUGUGGGAAGAAGAAUUUAUUGAACGCUGUUUCCAAGAAAUGCUGGAACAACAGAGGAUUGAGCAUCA | 0.954 ratio |

Block 4 — technique: RNA Bind-n-Seq; molecule type: RNA; medium: in vitro; concentration: 365 nM; reference: no-protein control; reading: higher = stronger binding
Target: RNA binding protein fox-1 homolog 2, RRM domain, GST-SBP tag (RBFOX2, Homo sapiens, UniProt O43251-10, residues 100-194)
Notes: natural RNA segment, single round, ends assumed
Construct (chain): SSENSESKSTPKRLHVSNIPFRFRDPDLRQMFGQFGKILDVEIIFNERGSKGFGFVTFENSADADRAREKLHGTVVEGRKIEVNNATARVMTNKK
| Sequence | RBNS enrichment (R) |
| --- | --- |
| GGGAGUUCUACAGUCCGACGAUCCUAGGAAAAGAGACAUUCUUGGCUCUUCUCUUUCCUGGUGUGCCAUGAUCCAGGGAAUGAAAAGAAAUUUGACCCUGGAUUAGUUUCUUUGUCGGCGCUGAGGAACACUGUGGAAUUCUCGGGUGCCAA | 0.492 |
| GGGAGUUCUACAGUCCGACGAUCGGAAAUCUUUAUAUUCUGUAUAAAAACAAAAGCAAAUUUAUAUACUAAAAUCAUUUGUCUAAAAAUUUAAGUUGUUUUCAAAUAAAAAUUAAAAUGCAUUUCUGAUAUGCUGGAAUUCUCGGGUGCCAA | 0.835 |
| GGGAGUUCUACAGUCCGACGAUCCUUUAAUUAUUUUUUUCAAUUUCAAGUUUAAUUUUAUUUUAGCUGAUCUGAUGUGGUUUCAACUAACCCAAGGUCUCACCAUGUUAAAAUGCCGGCGGACUCUACGGCGUUGGAAUUCUCGGGUGCCAA | 0.329 |
| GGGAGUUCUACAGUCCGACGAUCUUCCUCUGUUUUUCACUAAAUAAGCAAAUGAAAACUCUCUCCAUUACCUUCUGCUUUCUCUUUGUCCACUUACGCAGUAGGUGACUGGCAUGUGCCACAGAGCAGGCCCUUGGAAUUCUCGGGUGCCAA | 0.955 |
| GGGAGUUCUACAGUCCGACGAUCUUUUUUAAAUACACUUGAAAUAAAAAUGAUUAAACUAAAUUUUGGUCCAGUGACAUUACUUUGCACUGCAUAAUCCAUUAUACGUUGUACGACUUUUUUUUUUUGUUUUAUGGAAUUCUCGGGUGCCAA | 0.595 |
| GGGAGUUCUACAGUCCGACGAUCUCUUUGAUAACCAACCCAGUGAUUUACAUGCUGAUAGCUAAGUGAGUUUUUAAUGGCCAUUGUGUAUGAUUUUGAUGCACAACUAGUUAAAAGCCUUUCAUACCAGUCAGUGGAAUUCUCGGGUGCCAA | 0.248 |
| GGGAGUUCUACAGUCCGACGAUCUGUUGGUUUAUAAUAGACAAGUUUUAUGGUCAUAUGCAAUUAUUCCAUUAUCUUUUUGGACACAGUGAAUAUGUUUUUUAGCUAAAAAUGUCCUUGGAAACAUAAAUGCCUGGAAUUCUCGGGUGCCAA | 0.519 |
| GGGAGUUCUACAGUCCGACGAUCGCUUCUUUGUAGCAGGGUAAAUCGUCCUGUCAAAGGGAGUUGCUGGAAUAAUGGGCCAAACAUCUGGUCUUGCAUUGAAAUAGCAUUUCUUUGGGAUUGUGAAUAGAAUGUGGAAUUCUCGGGUGCCAA | 0.307 |
| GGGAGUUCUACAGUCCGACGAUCUCUAUCACCACGAGAGAACUUCCCAUCCAGGGCAGAACUCUGAUCUUAAACACUUCCCACUGCCAGAGUGAGAGUGGGAGUCAUGGCCUCCUGAAAACUUGGACUCUGCAUGGAAUUCUCGGGUGCCAA | 5.32 |

For quick reference, copied from above (block 1):
| Sequence | E-score |
| --- | --- |
| TATAAGCA | 0.279 |
| TGACCACA | 0.0314 |
| AGCGTAGA | -0.105 |
| AGGAACCG | -0.198 |
| ATAATACG | 0.27 |
